Results from different studies.
Numbered parts are unrelated; each lists some results of a single study.

Series 1
Target: Histone acetyltransferase KAT6A, winged helix 2, GST fusion (KAT6A, Homo sapiens, UniProt Q92794, residues 85-181)
Method: protein binding microarray
Molecule type: double-stranded DNA, one strand shown
Medium: in vitro
Tested at: not given
Notes: 8-mer, flanks averaged, mean of 2 arrays, mostly near background
Reference: not given
Reading: higher = stronger binding
Target sequence (chain): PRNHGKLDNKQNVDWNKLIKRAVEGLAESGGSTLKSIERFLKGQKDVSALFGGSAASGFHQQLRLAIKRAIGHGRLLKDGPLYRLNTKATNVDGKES
The E-score of `ATACTCAT` is reported as -0.0869.
The E-score of `ACCACCAG` is reported as 0.0373.
For `CACACAGG`, the E-score was -0.0112.
With `GACACGGC` the E-score was 0.0355.
With `ACTCGCAC` the E-score was 0.119.
With `GCATTACC` the E-score was -0.0948.

Series 2
Target: Interferon regulatory factor 3, full length, phosphomimetic (IRF3, Homo sapiens, UniProt Q14653, residues 1-427, S386D/S396D/S398D/S402D/T404D/S405D)
Method: protein-binding microarray
Molecule type: double-stranded DNA, one strand shown
Medium: in vitro
Tested at: 2540 nM top
Notes: 60-bp whole probe
With: salmon DNA 0.4 mg/ml
Reference: random background probes
Reading: higher = stronger binding
All sequences stand within: GCCTAGCAC … GTGCTAGGTCTTGATTCGCTTGACGCTGCTG
Residues (chain): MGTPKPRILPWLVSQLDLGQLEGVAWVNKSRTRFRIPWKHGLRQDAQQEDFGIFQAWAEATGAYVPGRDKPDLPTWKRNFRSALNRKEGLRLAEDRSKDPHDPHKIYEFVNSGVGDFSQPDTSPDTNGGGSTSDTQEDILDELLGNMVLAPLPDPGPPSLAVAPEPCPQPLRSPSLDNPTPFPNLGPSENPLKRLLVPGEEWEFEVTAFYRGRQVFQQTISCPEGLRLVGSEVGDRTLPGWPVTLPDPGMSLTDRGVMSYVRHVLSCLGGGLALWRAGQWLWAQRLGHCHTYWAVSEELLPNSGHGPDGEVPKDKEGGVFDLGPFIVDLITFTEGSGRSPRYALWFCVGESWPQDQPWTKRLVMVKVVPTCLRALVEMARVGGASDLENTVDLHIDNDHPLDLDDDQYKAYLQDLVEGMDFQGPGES
Under “fitted relative affinity”, `GACGGTATCGGTATCGCGAC` is recorded as 4.32 z-score.
`GACGGTTCCCTTCTCCTGAC`: “fitted relative affinity” 6.83 z-score.
`TTAAGTCTCGGTATCGGTTA` — result for “fitted relative affinity”: 2.85 z-score.
`TTGTTTTTCATTATTGTCTC`: “fitted relative affinity” 1.58 z-score.
`TTAGAATTGAGACTGGATTA` — result for “fitted relative affinity”: -0.422 z-score.
Under “fitted relative affinity”, `GTTCTTATCCTTCCCCTCTA` is recorded as 1.95 z-score.
Under “fitted relative affinity”, `GACGATTTGAGACTGGAGAC` is recorded as 0.0201 z-score.

Series 3
Target: Prothrombin, mature alpha-thrombin (F2, Homo sapiens, UniProt P00734)
Method: aptamer microarray, sandwich
Molecule type: DNA with 2'F-ANA
Medium: in vitro
Tested at: 200 nM
Notes: whole 15-mer aptamer, many near background
With: Cy3 exosite-II aptamer, 400 nM
Reading: higher = stronger binding
Oligonucleotide: GGTTGGTGTGGTTGG
`2'F-ANA at 2 3 4 7 8 10 14` — result for “mean fluorescence intensity”: 202 a.u.
For `2'F-ANA at 2 5 6 7 8 11 14`, “mean fluorescence intensity” read 48.7 a.u.
`2'F-ANA at 3 8 9 10 11 12 13 14 15`: “mean fluorescence intensity” 330 a.u.
`2'F-ANA at 5 7 9 11 12 13` — result for “mean fluorescence intensity”: 95.1 a.u.
`2'F-ANA at 1 2 5 9 13 14` — result for “mean fluorescence intensity”: 45.8 a.u.
Under “mean fluorescence intensity”, `2'F-ANA at 1 3 4 6 8 9 10 11 14 15` is recorded as 52.7 a.u.
`2'F-ANA at 3 8 9 11 13 14` — result for “mean fluorescence intensity”: 599 a.u.
Under “mean fluorescence intensity”, `2'F-ANA at 1 5 6 7 8 9 13` is recorded as 70.6 a.u.

Single results of other studies
`PhoQ, residues 284 288 289 292 302 303 SNGLAW` has a fold induction of 14.8 (PhoP, residues 12 14 15 18 19 LWHVM (Escherichia coli, UniProt P23836); Sort-seq, refers to: YFP reporter; E. coli; PhoQ-PhoP variant library, with: 10 µM Mg2+; reference: high Mg2+ state, higher = stronger signaling).

Repeated from above (series 3):
`2'F-ANA at 5 7 9 11 12 13` — result for “mean fluorescence intensity”: 95.1 a.u.
